Assay results collected from several papers.
Each numbered part is a random draw from the data of one study; scales do not carry over between parts. “And” joins repeats or separate records; there may be more than shown.
UniProt P29376, sequence (whole entry, looked up): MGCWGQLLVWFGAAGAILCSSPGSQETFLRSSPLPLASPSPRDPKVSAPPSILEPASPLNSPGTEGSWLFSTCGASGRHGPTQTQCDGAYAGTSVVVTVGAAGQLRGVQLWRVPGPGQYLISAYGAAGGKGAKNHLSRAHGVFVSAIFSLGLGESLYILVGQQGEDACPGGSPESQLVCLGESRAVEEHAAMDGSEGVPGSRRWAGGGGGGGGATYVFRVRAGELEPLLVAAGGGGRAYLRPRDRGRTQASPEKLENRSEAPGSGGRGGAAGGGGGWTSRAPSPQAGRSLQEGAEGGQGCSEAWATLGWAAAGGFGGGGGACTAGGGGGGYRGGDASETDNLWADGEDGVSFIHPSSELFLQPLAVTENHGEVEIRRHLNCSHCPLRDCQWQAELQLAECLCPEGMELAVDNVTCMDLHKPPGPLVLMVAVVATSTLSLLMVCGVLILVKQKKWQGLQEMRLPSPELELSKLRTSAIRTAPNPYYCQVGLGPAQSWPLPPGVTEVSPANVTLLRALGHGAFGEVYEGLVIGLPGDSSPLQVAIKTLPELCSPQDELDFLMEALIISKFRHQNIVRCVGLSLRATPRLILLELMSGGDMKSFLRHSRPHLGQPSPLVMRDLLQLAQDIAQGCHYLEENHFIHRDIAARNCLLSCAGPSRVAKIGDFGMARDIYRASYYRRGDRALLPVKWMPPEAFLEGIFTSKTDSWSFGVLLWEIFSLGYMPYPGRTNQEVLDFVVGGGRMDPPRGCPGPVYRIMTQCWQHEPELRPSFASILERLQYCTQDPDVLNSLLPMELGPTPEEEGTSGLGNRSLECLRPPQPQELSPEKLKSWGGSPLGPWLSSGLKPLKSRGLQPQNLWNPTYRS
UniProt P51812, sequence (whole entry, looked up): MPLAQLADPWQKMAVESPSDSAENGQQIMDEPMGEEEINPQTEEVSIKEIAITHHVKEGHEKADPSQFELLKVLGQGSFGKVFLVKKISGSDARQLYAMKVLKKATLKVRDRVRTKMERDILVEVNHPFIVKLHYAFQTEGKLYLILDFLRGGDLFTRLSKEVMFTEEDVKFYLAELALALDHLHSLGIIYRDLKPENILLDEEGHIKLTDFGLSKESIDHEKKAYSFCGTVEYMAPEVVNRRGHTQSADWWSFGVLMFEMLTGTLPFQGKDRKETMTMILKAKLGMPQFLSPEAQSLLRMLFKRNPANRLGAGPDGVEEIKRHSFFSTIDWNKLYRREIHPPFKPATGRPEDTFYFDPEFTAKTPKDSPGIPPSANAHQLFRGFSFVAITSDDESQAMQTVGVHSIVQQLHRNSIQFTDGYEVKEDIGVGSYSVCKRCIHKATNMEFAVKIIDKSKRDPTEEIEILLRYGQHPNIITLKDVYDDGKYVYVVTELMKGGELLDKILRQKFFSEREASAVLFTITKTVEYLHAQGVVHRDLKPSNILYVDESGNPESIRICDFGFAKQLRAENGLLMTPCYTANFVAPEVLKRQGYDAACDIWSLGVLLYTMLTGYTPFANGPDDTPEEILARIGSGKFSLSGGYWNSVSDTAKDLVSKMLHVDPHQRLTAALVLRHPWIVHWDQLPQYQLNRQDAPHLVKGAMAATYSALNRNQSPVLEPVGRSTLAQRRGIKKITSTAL
UniProt Q15835, sequence (whole entry, looked up): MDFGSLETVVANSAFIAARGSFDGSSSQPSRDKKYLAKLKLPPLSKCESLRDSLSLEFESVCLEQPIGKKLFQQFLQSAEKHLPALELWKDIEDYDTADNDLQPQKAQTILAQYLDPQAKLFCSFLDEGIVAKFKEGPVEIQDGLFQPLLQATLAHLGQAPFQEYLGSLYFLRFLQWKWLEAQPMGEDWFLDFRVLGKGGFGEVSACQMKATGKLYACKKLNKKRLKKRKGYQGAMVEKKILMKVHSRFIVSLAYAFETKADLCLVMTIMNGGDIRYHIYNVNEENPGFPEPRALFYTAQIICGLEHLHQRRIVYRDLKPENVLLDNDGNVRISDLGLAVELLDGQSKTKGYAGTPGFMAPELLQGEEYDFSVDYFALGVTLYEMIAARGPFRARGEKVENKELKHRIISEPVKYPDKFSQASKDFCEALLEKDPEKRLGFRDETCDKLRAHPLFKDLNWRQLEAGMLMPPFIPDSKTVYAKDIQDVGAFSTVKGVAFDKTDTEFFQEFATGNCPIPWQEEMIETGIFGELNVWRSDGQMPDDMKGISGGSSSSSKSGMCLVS
UniProt P07333, sequence (whole entry, looked up): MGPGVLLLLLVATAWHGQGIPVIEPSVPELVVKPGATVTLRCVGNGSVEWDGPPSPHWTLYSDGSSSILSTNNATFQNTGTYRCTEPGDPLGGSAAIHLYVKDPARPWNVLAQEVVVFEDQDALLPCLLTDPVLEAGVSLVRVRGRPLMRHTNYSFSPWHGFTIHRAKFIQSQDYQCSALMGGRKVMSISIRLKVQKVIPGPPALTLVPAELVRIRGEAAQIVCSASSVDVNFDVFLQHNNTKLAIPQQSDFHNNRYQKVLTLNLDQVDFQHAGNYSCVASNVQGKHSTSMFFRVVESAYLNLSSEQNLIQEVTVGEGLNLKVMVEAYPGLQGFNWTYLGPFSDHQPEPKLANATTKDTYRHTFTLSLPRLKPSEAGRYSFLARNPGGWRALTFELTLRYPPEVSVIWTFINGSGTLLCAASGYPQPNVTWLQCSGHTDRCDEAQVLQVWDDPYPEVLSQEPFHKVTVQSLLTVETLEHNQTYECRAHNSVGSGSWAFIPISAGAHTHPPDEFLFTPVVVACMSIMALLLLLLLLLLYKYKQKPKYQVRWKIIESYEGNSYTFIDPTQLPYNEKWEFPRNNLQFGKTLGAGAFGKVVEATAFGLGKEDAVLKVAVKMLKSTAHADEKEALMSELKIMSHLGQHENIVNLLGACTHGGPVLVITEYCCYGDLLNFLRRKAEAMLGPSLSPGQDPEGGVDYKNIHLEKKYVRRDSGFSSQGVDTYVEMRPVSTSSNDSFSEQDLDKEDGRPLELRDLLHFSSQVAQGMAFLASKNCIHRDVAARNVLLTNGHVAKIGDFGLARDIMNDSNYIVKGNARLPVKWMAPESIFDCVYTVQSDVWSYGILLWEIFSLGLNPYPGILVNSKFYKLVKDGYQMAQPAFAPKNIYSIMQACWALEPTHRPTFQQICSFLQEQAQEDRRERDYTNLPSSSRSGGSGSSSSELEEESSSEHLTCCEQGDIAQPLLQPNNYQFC
UniProt Q9P289, sequence (whole entry, looked up): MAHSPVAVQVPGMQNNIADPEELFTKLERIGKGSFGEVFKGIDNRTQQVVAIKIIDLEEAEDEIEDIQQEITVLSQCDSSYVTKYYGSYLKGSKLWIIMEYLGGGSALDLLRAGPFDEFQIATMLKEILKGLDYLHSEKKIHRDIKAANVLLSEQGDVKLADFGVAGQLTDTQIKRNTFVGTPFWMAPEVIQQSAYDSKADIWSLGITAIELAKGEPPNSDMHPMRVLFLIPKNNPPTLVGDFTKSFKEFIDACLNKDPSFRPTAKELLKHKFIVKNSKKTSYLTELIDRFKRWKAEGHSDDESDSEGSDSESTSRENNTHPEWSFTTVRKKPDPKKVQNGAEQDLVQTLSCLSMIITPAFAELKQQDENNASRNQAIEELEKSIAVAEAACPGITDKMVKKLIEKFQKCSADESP

Series 1
Compound: CN(C1COC1)C(C)(C)/C=C(\C#N)C(=O)N1CCC[C@H]1Cn1nc(-c2ccc(Oc3ccccc3)cc2F)c2c(N)ncnc21
Effect on: kinase activity
target	setting	inhibition
Serine/threonine-protein kinase TAO3 (TAOK3, Homo sapiens, UniProt Q9H2K8)	0.1 µM	6%
Serine/threonine-protein kinase 26 (STK26, Homo sapiens, UniProt Q9P289)	0.1 µM	8%
Mitogen-activated protein kinase kinase kinase kinase 5 (MAP4K5, Homo sapiens, UniProt Q9Y4K4)	1 µM	5%
Rho-associated protein kinase 1 (ROCK1, Homo sapiens, UniProt Q13464)	1 µM	-6%
Protein-tyrosine kinase 2-beta (PTK2B, Homo sapiens, UniProt Q14289)	1 µM	3%
Leukocyte tyrosine kinase receptor (LTK, Homo sapiens, UniProt P29376)	0.1 µM	2%
5'-AMP-activated protein kinase catalytic subunit alpha-1, with beta1, gamma1 (PRKAA1, Homo sapiens, UniProt Q13131)	0.1 µM	5%
Mitogen-activated protein kinase 9 (MAPK9, Homo sapiens, UniProt P45984)	1 µM	-15%
Ribosomal protein S6 kinase alpha-3 (RPS6KA3, Homo sapiens, UniProt P51812)	0.1 µM	-1%
Dual specificity protein kinase CLK3 (CLK3, Homo sapiens, UniProt P49761)	1 µM	-3%
Serine/threonine-protein kinase D3 (PRKD3, Homo sapiens, UniProt O94806)	0.1 µM	6%
Calcium/calmodulin-dependent protein kinase type 1D (CAMK1D, Homo sapiens, UniProt Q8IU85)	0.1 µM	4%
Serine/threonine-protein kinase PLK1 (PLK1, Homo sapiens, UniProt P53350)	0.1 µM	10%
Macrophage colony-stimulating factor 1 receptor (CSF1R, Homo sapiens, UniProt P07333)	0.1 µM	0%
Serine/threonine-protein kinase SIK1 (SIK1, Homo sapiens, UniProt P57059)	1 µM	0%

Series 2
Compound: Cc1ncc(-c2cc3c(C(F)(F)F)c(-c4c(C)ccc(O)c4C)cnc3[nH]2)cn1
Target: Membrane-associated tyrosine- and threonine-specific cdc2-inhibitory kinase (PKMYT1, Homo sapiens, UniProt Q99640)
Effect on: binding
Method: HTRF
Target sequence (Q99640 1-499): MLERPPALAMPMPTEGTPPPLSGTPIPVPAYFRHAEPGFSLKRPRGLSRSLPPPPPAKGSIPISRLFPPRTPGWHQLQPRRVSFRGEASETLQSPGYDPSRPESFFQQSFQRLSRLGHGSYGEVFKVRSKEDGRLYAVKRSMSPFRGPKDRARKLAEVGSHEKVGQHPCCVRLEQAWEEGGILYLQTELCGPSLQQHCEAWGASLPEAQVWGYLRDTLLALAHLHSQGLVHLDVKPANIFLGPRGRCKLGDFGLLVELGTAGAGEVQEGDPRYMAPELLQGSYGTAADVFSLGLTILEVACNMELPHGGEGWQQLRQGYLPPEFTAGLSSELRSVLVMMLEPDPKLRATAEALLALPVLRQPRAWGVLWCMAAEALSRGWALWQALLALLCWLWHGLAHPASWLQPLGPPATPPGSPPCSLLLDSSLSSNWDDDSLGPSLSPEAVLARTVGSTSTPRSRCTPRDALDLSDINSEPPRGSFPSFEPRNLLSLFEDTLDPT
setting	inhibition
13.72 nM	74.2% and 75.2%
3333.33 nM	102% and 103%
0.51 nM	-7.38% and -4.82%
10000 nM	107%
1.52 nM	14.6% and 16.1%
123.46 nM	94% and 93.3%
1111.11 nM	98.5% and 99%
4.57 nM	40.4% and 39.7%

Series 3
Compound: CC[C@@]1(c2cccc(C(F)(F)F)c2)C2=C(Nc3n[nH]cc31)[C@H](F)C(C)(C)CC2=O (single isomer, unassigned)
Concentration: 1 µM
target	test	scale	remaining binding [%]
Leukocyte tyrosine kinase receptor (LTK, Homo sapiens, UniProt P29376)	kinase binding, KINOMEscan	reference: DMSO control	100
Tyrosine-protein kinase Tec (TEC, Homo sapiens, UniProt P42680)	kinase binding, KINOMEscan	reference: DMSO control	100
Casein kinase I isoform gamma-1 (CSNK1G1, Homo sapiens, UniProt Q9HCP0)	binding, competition with immobilised ligand	–	56
Serine/threonine-protein kinase PAK 1 (PAK1, Homo sapiens, UniProt Q13153)	binding, competition with immobilised ligand	–	100
Macrophage-stimulating protein receptor (MST1R, Homo sapiens, UniProt Q04912)	kinase binding, KINOMEscan	reference: DMSO control	85
Transient receptor potential cation channel subfamily M member 6 (TRPM6, Homo sapiens, UniProt Q9BX84)	binding, competition with immobilised ligand	–	100
Ephrin type-A receptor 5 (EPHA5, Homo sapiens, UniProt P54756)	binding, competition with immobilised ligand	–	100
Serine/threonine-protein kinase WNK1 (WNK1, Homo sapiens, UniProt Q9H4A3)	kinase binding, KINOMEscan	reference: DMSO control	100
Serine/threonine-protein kinase BRSK2 (BRSK2, Homo sapiens, UniProt Q8IWQ3)	binding, competition with immobilised ligand	–	100
Protein kinase C epsilon type (PRKCE, Homo sapiens, UniProt Q02156)	kinase binding, KINOMEscan	reference: DMSO control	100
Serine/threonine-protein kinase NIM1 (NIM1K, Homo sapiens, UniProt Q8IY84)	binding, competition with immobilised ligand	–	94
Mitogen-activated protein kinase kinase kinase 20 (MAP3K20, Homo sapiens, UniProt Q9NYL2)	binding, competition with immobilised ligand	–	100
Casein kinase I isoform gamma-3 (CSNK1G3, Homo sapiens, UniProt Q9Y6M4)	kinase binding, KINOMEscan	reference: DMSO control	100
Interleukin-1 receptor-associated kinase 3 (IRAK3, Homo sapiens, UniProt Q9Y616)	binding, competition with immobilised ligand	–	82
Membrane-associated tyrosine- and threonine-specific cdc2-inhibitory kinase (PKMYT1, Homo sapiens, UniProt Q99640)	binding, competition with immobilised ligand	–	79
BMP-2-inducible protein kinase (BMP2K, Homo sapiens, UniProt Q9NSY1)	binding, competition with immobilised ligand	–	66
Ephrin type-B receptor 1 (EPHB1, Homo sapiens, UniProt P54762)	binding, competition with immobilised ligand	–	100
Serine/threonine-protein kinase D2 (PRKD2, Homo sapiens, UniProt Q9BZL6)	kinase binding, KINOMEscan	reference: DMSO control	71
Rhodopsin kinase GRK1 (GRK1, Homo sapiens, UniProt Q15835)	kinase binding, KINOMEscan	reference: DMSO control	56

Series 4
Compound: C[C@@H]1CN(c2ccc(-c3cc(C(=O)NCCOCCOCCOCCOCCNC(=O)/C=C/c4[nH]cc(C(=O)N[C@@H](CC(N)=O)c5ccc(F)c(Cl)c5)c4-c4ccc(Cl)cc4F)ccc3F)cc2NC(=O)c2c[nH]c(=O)cc2C(F)(F)F)C[C@H](C)N1C
Effect on: thermal unfolding
Method: differential scanning fluorimetry
Concentration: 5.5 µM
Direction: higher = more unfolded
DCAF1: DDB1- and CUL4-associated factor 1 (DCAF1, Homo sapiens, UniProt Q9Y4B6)
UniProt Q9Y4B6, sequence (whole entry, looked up): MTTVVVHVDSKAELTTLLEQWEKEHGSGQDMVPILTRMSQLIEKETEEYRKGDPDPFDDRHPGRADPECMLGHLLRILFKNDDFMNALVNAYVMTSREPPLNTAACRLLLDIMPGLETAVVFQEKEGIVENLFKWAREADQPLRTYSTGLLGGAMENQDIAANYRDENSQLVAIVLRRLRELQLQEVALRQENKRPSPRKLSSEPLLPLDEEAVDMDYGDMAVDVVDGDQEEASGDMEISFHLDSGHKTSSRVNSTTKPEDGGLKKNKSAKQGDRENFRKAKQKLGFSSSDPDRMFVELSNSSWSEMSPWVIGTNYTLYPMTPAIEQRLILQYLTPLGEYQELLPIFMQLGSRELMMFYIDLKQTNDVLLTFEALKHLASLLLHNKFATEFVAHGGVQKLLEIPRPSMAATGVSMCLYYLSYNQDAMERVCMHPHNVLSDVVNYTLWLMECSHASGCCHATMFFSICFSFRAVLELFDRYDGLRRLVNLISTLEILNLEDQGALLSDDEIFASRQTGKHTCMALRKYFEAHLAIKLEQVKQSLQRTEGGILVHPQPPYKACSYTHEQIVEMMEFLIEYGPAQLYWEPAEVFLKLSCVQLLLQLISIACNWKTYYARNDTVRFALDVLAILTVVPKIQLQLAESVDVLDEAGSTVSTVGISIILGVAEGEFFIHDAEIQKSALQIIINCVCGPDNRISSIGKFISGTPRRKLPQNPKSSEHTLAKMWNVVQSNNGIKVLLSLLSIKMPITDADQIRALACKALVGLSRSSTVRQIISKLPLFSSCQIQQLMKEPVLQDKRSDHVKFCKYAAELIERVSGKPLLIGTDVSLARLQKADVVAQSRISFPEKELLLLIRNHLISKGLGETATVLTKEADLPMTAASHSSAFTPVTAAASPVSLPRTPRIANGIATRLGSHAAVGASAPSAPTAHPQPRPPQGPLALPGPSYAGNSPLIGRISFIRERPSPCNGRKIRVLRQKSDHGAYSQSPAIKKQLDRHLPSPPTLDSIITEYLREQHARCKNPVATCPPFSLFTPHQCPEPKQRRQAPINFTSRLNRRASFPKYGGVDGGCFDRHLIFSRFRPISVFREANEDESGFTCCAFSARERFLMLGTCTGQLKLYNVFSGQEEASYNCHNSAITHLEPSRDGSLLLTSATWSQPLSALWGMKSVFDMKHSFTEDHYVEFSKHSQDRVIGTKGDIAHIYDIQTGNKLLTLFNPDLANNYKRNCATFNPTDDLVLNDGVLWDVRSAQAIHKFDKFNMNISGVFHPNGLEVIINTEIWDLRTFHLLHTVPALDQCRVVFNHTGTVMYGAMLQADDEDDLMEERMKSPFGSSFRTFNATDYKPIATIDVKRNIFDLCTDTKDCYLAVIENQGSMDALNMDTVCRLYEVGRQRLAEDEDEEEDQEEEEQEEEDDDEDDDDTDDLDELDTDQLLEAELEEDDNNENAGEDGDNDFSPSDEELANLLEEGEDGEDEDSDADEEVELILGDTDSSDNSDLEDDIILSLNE
WDR5: WD repeat-containing protein 5 (WDR5, Homo sapiens, UniProt P61964)
target	setting	SYPRO Orange fluorescence [a.u.]
DCAF1	56.61 °C	25800
WDR5	45 °C	15300
WDR5	33.4 °C	13000
WDR5	94.01 °C	46400
WDR5	33.2 °C	12900
WDR5	25.8 °C	12900
WDR5	76.21 °C	28800
DCAF1	55.81 °C	23400
DCAF1	29.8 °C	9490
WDR5	33 °C	12900
WDR5	41.8 °C	14600

A few entries again (series 1):
target	setting	inhibition
Mitogen-activated protein kinase kinase kinase kinase 5 (MAP4K5, Homo sapiens, UniProt Q9Y4K4)	1 µM	5%
Serine/threonine-protein kinase PLK1 (PLK1, Homo sapiens, UniProt P53350)	0.1 µM	10%
Dual specificity protein kinase CLK3 (CLK3, Homo sapiens, UniProt P49761)	1 µM	-3%
Ribosomal protein S6 kinase alpha-3 (RPS6KA3, Homo sapiens, UniProt P51812)	0.1 µM	-1%
Serine/threonine-protein kinase TAO3 (TAOK3, Homo sapiens, UniProt Q9H2K8)	0.1 µM	6%
Mitogen-activated protein kinase 9 (MAPK9, Homo sapiens, UniProt P45984)	1 µM	-15%
Calcium/calmodulin-dependent protein kinase type 1D (CAMK1D, Homo sapiens, UniProt Q8IU85)	0.1 µM	4%
Protein-tyrosine kinase 2-beta (PTK2B, Homo sapiens, UniProt Q14289)	1 µM	3%
Rho-associated protein kinase 1 (ROCK1, Homo sapiens, UniProt Q13464)	1 µM	-6%
